Measurements pooled from the literature.
Every numbered part comes from another study and shows a few of its results, in no order. Changes are numbered by the printed parent chain.
Chain of UniProt Q8TDC3 (whole entry, looked up): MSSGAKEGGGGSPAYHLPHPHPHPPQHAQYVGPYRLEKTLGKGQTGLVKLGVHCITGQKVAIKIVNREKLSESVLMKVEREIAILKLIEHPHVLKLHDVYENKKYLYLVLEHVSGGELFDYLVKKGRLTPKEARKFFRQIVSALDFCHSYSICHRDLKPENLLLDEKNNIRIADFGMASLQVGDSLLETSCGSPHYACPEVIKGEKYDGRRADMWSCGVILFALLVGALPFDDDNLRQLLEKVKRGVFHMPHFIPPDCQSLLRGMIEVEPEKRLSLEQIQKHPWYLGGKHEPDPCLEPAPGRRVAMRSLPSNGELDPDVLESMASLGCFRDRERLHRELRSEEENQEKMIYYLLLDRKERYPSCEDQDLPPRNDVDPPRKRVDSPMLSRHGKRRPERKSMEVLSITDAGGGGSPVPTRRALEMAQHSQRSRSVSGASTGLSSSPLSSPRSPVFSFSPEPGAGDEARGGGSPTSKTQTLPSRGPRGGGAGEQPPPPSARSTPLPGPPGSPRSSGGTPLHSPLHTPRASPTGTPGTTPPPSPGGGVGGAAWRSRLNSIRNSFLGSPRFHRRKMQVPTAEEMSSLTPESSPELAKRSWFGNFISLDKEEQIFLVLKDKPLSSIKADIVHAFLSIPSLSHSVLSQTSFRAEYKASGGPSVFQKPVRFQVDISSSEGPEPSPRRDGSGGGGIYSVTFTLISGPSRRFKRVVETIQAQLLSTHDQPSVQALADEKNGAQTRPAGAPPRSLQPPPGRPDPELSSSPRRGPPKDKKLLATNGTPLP
Chain of UniProt Q09013 (whole entry, looked up): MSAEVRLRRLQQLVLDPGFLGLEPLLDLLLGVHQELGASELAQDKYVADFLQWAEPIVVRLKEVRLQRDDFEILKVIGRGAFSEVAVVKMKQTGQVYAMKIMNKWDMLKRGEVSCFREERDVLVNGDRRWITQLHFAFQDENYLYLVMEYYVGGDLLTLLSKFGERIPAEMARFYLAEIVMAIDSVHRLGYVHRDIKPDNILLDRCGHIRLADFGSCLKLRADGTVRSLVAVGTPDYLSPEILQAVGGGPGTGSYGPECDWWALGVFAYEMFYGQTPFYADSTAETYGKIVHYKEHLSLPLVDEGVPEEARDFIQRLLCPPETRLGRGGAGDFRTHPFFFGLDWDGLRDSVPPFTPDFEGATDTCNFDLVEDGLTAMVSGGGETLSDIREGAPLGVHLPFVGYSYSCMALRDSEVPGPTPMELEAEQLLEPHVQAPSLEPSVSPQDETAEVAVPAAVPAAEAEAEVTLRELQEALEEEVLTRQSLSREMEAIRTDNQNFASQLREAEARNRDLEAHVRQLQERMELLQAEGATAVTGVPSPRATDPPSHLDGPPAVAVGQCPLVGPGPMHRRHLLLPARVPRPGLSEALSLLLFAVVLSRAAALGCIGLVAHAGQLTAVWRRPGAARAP
Chain of UniProt Q96NX5 (whole entry, looked up): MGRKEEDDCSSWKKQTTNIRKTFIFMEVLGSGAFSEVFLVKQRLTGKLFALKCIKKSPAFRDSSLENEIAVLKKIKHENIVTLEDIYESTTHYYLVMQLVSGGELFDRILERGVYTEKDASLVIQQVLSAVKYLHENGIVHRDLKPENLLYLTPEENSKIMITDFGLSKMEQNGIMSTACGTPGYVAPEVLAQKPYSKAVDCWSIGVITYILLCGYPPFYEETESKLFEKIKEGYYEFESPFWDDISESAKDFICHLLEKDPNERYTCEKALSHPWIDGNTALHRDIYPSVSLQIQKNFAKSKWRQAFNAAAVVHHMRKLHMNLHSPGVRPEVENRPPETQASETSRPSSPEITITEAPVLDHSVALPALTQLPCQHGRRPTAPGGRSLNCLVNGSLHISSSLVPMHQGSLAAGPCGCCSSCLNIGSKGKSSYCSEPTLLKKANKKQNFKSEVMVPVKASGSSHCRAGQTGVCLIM
Chain of UniProt Q9Y2U5 (whole entry, looked up): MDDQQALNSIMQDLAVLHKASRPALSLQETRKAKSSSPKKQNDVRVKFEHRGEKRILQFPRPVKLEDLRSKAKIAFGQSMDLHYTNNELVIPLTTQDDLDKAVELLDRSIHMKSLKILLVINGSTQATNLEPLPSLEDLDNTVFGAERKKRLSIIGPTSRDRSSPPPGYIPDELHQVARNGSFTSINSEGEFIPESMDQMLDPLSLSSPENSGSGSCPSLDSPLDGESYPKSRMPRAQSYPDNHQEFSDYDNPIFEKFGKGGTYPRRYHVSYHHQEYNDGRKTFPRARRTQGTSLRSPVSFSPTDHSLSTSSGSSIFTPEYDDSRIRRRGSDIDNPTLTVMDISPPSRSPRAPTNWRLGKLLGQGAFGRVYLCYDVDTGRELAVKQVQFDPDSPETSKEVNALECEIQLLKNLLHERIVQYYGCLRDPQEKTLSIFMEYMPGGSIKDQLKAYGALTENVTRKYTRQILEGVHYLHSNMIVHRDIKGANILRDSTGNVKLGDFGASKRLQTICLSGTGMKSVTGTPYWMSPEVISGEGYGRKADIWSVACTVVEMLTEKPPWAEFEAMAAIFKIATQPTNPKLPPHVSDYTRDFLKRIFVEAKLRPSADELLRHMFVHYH
Chain of UniProt Q8IU85 (whole entry, looked up): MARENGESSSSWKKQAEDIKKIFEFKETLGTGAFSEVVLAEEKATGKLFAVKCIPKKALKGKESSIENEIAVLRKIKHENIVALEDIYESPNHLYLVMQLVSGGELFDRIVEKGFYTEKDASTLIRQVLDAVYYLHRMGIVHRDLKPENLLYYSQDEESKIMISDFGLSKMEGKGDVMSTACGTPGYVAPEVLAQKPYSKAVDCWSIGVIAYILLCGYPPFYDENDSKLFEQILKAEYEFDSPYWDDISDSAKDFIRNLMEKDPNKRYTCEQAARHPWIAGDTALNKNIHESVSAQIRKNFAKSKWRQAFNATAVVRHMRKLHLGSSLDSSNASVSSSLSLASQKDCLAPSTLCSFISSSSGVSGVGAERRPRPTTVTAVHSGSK

Set 1
Target: vanadate, free oxyanion
Method: microfluidic competitive inhibition
Medium: in vitro, cell-free expressed
Tested at: not given
Setting: derived from inhibition constants, unchanged parent 676 nM
Reading: lower = stronger binding
Parent: PafA, mature enzyme, eGFP fusion (Elizabethkingia meningoseptica, UniProt Q9KJX5); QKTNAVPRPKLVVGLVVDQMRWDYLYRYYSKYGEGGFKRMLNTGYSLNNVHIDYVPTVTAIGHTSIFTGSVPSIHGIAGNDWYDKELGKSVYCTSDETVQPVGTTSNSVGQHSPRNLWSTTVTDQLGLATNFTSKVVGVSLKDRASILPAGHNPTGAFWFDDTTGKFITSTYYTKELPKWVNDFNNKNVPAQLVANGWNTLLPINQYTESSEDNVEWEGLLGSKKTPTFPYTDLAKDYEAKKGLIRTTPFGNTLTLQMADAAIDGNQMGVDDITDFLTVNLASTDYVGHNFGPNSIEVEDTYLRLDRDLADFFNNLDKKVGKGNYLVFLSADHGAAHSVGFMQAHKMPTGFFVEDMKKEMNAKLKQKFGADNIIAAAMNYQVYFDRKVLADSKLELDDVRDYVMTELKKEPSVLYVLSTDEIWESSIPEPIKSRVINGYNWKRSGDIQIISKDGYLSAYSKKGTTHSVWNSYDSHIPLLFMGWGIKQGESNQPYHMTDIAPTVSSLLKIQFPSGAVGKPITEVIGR
Change | oxyanion analog dissociation constant
M40G | 1.23 µM
S460V | 706 nM
I436G | 807 nM
R8G | 588 nM
G514A | 667 nM
E354V | 608 nM
S30G | 651 nM
T133V | 548 nM

Set 2
Cell line: mouse MPNST tumor cells
Method: high-content nuclear imaging
Refers to: cell number
Tested at: 10 µM
Time: 12 h
Setting: mean of 2 replicates
Baseline: plate mean
Reading: higher = more cells
SMILES | nuclei count
C=CC[C@]1(O)CC[C@H]2[C@@H]3CCC4=CC(=O)CCC4=C3C=C[C@@]21C | -0.385 z-score
NCC(O)c1ccc(O)cc1 (racemic) | 0.608 z-score
CN(C(=O)CN1C(=O)COc2cc(Cl)c(Cl)cc21)[C@@H](CN1CCCC1)c1ccc(-c2cccc(C(N)=O)c2)cc1 | -4.91 z-score

Set 3
Cell line: HEK-293T/ACE2
Tested at: concentration not given
Time: 16 (unit not given)
Baseline: vehicle
SMILES | viability [%]
N[C@@H](Cc1cc(I)c(Oc2ccc(O)c(I)c2)c(I)c1)C(=O)O | 97.7
CC(=O)Oc1ccccc1C(=O)O | 90.8
O=C1CCc2cc(OCCCCc3nnnn3C3CCCCC3)ccc2N1 | 99
CC(=O)O[C@H]1C[C@@H]2CC[C@@H]3[C@H](CC[C@@]4(C)[C@H]3C[C@H]([N+]3(C)CCCCC3)[C@@H]4OC(C)=O)[C@@]2(C)C[C@@H]1N1CCCCC1 | 100

Set 4
Compound: N/C(=N\[N+](=O)[O-])N/N=C\c1ccc(-c2cccc([N+](=O)[O-])c2)o1
Observed: enzyme activity
Action: inhibitor
Tested at: 0.5 µM
Baseline: control
target | remaining activity [%]
MAP3K2 (Homo sapiens, UniProt Q9Y2U5) | 97
CAMK1G (Homo sapiens, UniProt Q96NX5) | 104
DMPK (Homo sapiens, UniProt Q09013) | 102
BRSK1 (Homo sapiens, UniProt Q8TDC3) | 97.2
CAMK1D (Homo sapiens, UniProt Q8IU85) | 96.4

Set 5
Target: Kappa-type opioid receptor (OPRK1, Homo sapiens, UniProt P41145)
Chain of UniProt P41145 (whole entry, looked up): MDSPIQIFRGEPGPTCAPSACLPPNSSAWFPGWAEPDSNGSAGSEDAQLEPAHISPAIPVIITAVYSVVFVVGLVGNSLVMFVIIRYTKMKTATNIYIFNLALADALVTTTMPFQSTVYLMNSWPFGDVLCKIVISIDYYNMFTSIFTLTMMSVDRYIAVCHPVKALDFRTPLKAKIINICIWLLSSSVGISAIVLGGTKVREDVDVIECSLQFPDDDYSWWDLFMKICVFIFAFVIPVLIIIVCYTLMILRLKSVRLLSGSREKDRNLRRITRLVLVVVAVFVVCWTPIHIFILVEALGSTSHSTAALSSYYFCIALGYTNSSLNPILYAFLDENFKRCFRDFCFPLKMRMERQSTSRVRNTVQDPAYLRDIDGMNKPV
Observed: ligand displacement
Tested at: 10 µM
Structure (SMILES) | inhibition [%]
CN(C)CC#Cc1ccc(OCCCc2sc(N3CCc4cccc(C(=O)Nc5nc6ccccc6s5)c4C3)nc2C(=O)O)c(F)c1 | -14.9
Cc1ccc(-c2cnc([C@@]3(O)CC[C@H](C(=O)O)C(C)(C)C3)s2)cc1Nc1cccc(C(F)(F)F)n1 | -5.83
CS(=O)(=O)N1CCCC(NC(=O)[C@H](CCC2CCCCC2)NC(=O)c2ccc(CNC(=O)c3cnc4ccccn34)cc2)C1 (stereo partly drawn) | 20.1
COc1cc(N[C@@H]2CCCC[C@]2(O)C(F)(F)F)ccc1F | 10.5
Cn1nc(C(=O)NCc2ccc(C(=O)O)cc2)cc1-c1ccc2[nH]ccc2c1 | 16.8
C[C@H](c1ccc(F)cc1)N(Cc1cccc(C(=O)O)c1)C(=O)c1cnc2ccccc2c1 | -17.8
Nc1nc(NCc2ccccc2)nc(-c2cccc(CO)c2)n1 | 35.2
Cc1c(NC(=O)c2cc(C(N)=O)nc3cc(F)ccc23)c(C(F)(F)F)nn1Cc1ccc(C#N)cc1 | -6.9
C[C@@H]1CN(c2cc(-c3n[nH]c4ccc(OC5(C)CC5)cc34)ncn2)C[C@H](C)O1 | -0.6
Cc1c(N2CCNCC2)nc2ccc(Br)cc2c1C(=O)NC[C@H](CCC(=O)O)c1ccccc1Cl | 17.7
CC1=C(C#N)C(c2ccc3[nH]nc(C)c3c2)C(C#N)=C(C)N1 | 8.26
CN1CCN(c2ccnc(NCCc3ccccc3)n2)CC1 | 23.7
COCCOc1nc(-c2ccc(Cl)nc2)nc2c1CN(C(=O)c1ncn3ccccc13)CC2 | -1.56
Cn1cc(Cl)c2c(Oc3c(F)cc(Nc4cc(Cl)nc(N)n4)cc3F)ccnc21 | 54.4
O=C(NS(=O)(=O)c1ccc(NCC2CCOCC2)c([N+](=O)[O-])c1)c1ccc(N2CCN(Cc3ccc(C(F)(F)F)cc3-c3ccc(Cl)cc3)CC2)cc1Oc1cnc2[nH]ccc2c1 | -0.08
Nc1nc(NCc2ccccc2)nc(-c2ccccc2CO)n1 | 30.2
CNC(=O)Nc1ccc2c(c1)CC[C@]21OC(=O)N(CC(=O)N(Cc2ccc(F)cc2)[C@@H](C)C(F)(F)F)C1=O | 18.5
O=C(NCCCC1CCCCC1)c1ccc(CNC(=O)c2cnn(-c3ccccc3)c2C(F)(F)F)cc1 | 80.2
CN([C@@H]1CCc2c(CC(=O)O)c3ccccc3n2C1)S(=O)(=O)c1ccc(F)cc1 | 4.56
Cc1cc(Nc2nccc(C)n2)cc(-c2cnc([C@@]3(O)CC[C@H](C(=O)O)C(C)(C)C3)s2)c1 | 30.6

Other studies, line by line
Organism: Sarcocystis neurona
Observed: parasite growth
Tested at: 10 µM
Baseline: untreated
SMILES | log2 fold change
CC(C)CC(N(C)C)C1(c2ccc(Cl)cc2)CCC1.Cl (stereo not drawn) | 0.25
CN(C)C(=O)Oc1ccc[n+](C)c1.[Br-] | -0.0321
